Published values pooled from the literature.
Every numbered part comes from another study and shows a few of its results, in no order. “And” joins repeats or separate records; there may be more than shown. pEC50: −log10 of the molar value.
UniProt Q13705, sequence (whole entry, looked up): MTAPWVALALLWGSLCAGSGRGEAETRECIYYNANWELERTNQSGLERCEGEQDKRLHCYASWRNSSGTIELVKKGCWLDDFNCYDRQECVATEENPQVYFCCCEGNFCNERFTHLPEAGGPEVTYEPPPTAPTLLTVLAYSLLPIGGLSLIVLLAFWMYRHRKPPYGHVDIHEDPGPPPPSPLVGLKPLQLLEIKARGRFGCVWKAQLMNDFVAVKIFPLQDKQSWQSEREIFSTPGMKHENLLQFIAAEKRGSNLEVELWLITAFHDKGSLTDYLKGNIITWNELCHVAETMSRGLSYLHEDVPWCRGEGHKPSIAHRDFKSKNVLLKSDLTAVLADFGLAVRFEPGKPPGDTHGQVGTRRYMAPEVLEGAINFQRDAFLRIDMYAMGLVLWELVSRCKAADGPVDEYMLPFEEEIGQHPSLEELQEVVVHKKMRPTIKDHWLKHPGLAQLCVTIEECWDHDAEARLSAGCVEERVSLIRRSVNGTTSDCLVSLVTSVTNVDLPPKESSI

Sample 1 — Compound: C=CCc1ccc(O)c(-c2ccc(O)c(CC=C)c2)c1; measurement: normalized current
ANO1 del476-501/F628A: Anoctamin-1 (ANO1, Homo sapiens, UniProt Q5XXA6, del476-501/F628A)
UniProt Q5XXA6, sequence (whole entry, unmodified, looked up): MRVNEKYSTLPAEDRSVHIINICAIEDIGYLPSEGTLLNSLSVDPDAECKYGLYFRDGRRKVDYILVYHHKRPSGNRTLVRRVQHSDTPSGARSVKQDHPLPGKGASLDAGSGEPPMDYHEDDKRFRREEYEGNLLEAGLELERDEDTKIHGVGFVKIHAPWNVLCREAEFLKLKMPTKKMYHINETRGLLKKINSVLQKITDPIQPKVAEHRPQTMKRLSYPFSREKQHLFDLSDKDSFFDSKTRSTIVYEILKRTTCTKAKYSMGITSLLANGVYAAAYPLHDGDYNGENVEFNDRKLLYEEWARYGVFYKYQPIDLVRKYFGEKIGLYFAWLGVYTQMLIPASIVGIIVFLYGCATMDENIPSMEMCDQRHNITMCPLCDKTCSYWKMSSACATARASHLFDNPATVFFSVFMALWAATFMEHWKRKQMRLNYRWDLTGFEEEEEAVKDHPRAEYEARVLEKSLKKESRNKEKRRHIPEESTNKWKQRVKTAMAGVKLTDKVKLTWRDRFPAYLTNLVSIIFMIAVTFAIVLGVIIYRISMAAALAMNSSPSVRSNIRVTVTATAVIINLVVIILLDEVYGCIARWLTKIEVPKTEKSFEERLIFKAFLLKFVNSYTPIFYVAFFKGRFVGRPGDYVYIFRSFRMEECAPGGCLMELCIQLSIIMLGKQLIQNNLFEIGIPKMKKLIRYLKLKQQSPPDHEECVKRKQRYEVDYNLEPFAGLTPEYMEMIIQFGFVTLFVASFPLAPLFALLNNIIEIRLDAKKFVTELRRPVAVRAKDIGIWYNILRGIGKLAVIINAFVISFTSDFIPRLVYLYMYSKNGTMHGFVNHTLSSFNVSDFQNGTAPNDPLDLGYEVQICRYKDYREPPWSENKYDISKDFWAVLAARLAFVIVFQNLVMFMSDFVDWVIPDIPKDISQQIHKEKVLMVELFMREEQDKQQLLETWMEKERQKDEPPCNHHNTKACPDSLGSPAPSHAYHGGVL
ANO1 del476-501/F628A; chloride current, inhibitor, whole-cell voltage clamp; 30 µM, F602A mutant: 0.53
ANO1 del476-501/F628A; chloride current, whole-cell voltage clamp; 1 µM, concentration-response at -20 mV, together with: 4 µM Ca2+: -0.19
ANO1 del476-501/F628A; chloride current, whole-cell voltage clamp; 100 µM, concentration-response at -100 mV, together with: 4 µM Ca2+: -0.132
Anoctamin-1 (ANO1, Homo sapiens, UniProt Q5XXA6, del476-501); chloride current, whole-cell voltage clamp; 3 µM, wild type, I-V at 20 mV, together with: 4 µM Ca2+: 0.152
Anoctamin-1 (ANO1, Homo sapiens, UniProt Q5XXA6, del476-501/E649A); ion current, inside-out patch clamp; 10 µM, E623A mutant at -60 mV: -0.427
Anoctamin-1 (ANO1, Homo sapiens, UniProt Q5XXA6, del476-501/F803A); chloride current, inhibitor, whole-cell voltage clamp; 1 µM; reference: untreated: 0.907
ANO1 del476-501/F628A; chloride current, whole-cell voltage clamp; 30 µM, I-V at 60 mV, together with: 4 µM Ca2+: 0.272
Anoctamin-1 (ANO1, Homo sapiens, UniProt Q5XXA6, del476-501/R541A); chloride current, inside-out patch clamp; 10 µM, membrane voltage 100 mV: 0.756

Sample 2 — host: human; matrix: microsomes or S9; concentration: 2 µM; time: 0.5 h; measurement: remaining compound
Cc1nc(-c2ccccc2C)n(CC(O)c2ccccc2)n1 (stereo not drawn): 46.5%
CCN1C(=O)C2(NC(C)Cc3c2[nH]c2ccccc32)c2ccccc21 (stereo not drawn): 3.06%
O=S(=O)(c1ccccc1)N(CC(O)COc1cc(Cl)ccc1Cl)c1nccs1 (stereo not drawn): 5%
O=C(Cc1noc2ccccc12)N1CCn2c1nc1ccccc12: 64.1%
CC(C)c1nc(COc2ccccc2-c2ccnc(N)n2)no1: 7.4%
CCN(CC)C(=O)Cn1nc(S(C)(=O)=O)nc1-c1ccccc1OC: 90.2%
Cc1oc(=O)n(Cc2cc(C(N)=O)oc2C(C)(C)C)c1C: 86.7%
O=C(NNc1nc2ccccc2s1)c1ccccc1F: 37.8%

Mixed results
CN1CCN(CCOc2cc(OC3CCOCC3)c3c(Nc4c(Cl)ccc5c4OCO5)ncnc3c2)CC1  pEC50 (Activin receptor type-2B (ACVR2B, Homo sapiens, UniProt Q13705); kinase-HSP90-CDC37 interaction, LUMIER; human cells): 5.28
CC[C@@H](C)c1nc2cc(Nc3ccnc4ccc(S(=O)(=O)C(C)C)cc34)ccc2s1.Cl  viability (HT-29; necroptosis protection, CCK-8; 0.313 µM, together with: TNF-α SMAC mimetic zVAD): 14% and 21.3% and 21.7% and 25.9%

For quick reference, copied from above (sample 2):
Cc1nc(-c2ccccc2C)n(CC(O)c2ccccc2)n1 (stereo not drawn): 46.5%
O=S(=O)(c1ccccc1)N(CC(O)COc1cc(Cl)ccc1Cl)c1nccs1 (stereo not drawn): 5%
